{"data": "Published values collected from several papers", "note": "Protocols differ between the studies behind these lines. Numbers after ± are the reported error.", "chain of UniProt Q9HAW9 (whole entry, looked up)": "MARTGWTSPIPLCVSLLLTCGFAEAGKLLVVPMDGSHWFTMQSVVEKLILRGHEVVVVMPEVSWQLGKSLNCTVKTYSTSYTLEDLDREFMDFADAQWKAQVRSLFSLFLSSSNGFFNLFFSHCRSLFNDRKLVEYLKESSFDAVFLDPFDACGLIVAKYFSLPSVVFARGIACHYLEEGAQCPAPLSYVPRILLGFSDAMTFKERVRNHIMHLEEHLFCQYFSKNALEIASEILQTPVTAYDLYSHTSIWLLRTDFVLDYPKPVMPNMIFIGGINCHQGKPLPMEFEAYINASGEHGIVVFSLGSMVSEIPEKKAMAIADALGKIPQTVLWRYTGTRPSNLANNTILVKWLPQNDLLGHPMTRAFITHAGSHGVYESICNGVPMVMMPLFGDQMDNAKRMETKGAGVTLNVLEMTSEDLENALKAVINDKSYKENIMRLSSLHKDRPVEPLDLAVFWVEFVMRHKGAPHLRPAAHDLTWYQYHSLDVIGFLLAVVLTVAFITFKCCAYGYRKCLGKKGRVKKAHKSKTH"}
{"Structure (SMILES)": "NC1(C(=O)N[C@@H](CCO)c2ccc(Cl)cc2)CCN(c2nc[nH]c3nccc2-3)CC1", "test system": "metastatic CRPC patients", "conditions": "320 mg b.i.d., any grade, treatment-related, together with: enzalutamide 160 mg daily", "quantity": "incidence of Stomatitis", "result": "0%"}
{"Structure (SMILES)": "Cc1cc(N)c2c(OCC(C)(C)C(=O)NC(C)C)cccc2n1", "tested on": "Salmonella typhimurium", "test": "reverse mutation, plate incorporation", "test system": "TA98", "conditions": "1 µg/plate, with rat liver S9", "quantity": "mean revertant colonies", "result": "24 colonies/plate"}
{"Structure (SMILES)": "CNC(C)C(=O)O (racemic)", "tested on": "HCT-8", "test": "Hoechst nuclei count", "conditions": "1 mM, 24 h", "how to read": "baseline: PBS", "quantity": "host cell number", "result": "1.02 ± 0.019"}
{"Structure (SMILES)": "COc1cc(CNc2ccc(C(=O)O)cc2)ccc1O", "tested on": "HGF", "test": "cell viability, resazurin", "conditions": "72 h, 10% FBS", "quantity": "IC50", "result": "> 100 µM"}
{"Structure (SMILES)": "CC(C)=CCc1cc2c(cc1O)O[C@H](c1ccc(O)cc1)CC2=O", "tested on": "UGT1A8 (Homo sapiens, UniProt Q9HAW9)", "test": "glucuronidation, substrate", "test system": "recombinant enzyme", "conditions": "pH 7.4", "quantity": "CLint", "result": "248 µL/min/mg"}
{"Structure (SMILES)": "COc1cccc(CNc2ccc(C(=O)O)cc2)c1O", "tested on": "HGF", "test": "cell viability, resazurin", "conditions": "72 h, 10% FBS", "quantity": "IC50", "result": "> 100 µM"}
{"Structure (SMILES)": "Cc1cc(C(=O)NC(C)(C)COc2cccc3c2C(N)=NS(=O)(=O)N3)cc(C)n1", "tested on": "human peripheral blood lymphocytes", "test": "in vitro micronucleus test", "test system": "0.2% DMSO", "conditions": "1000 µg/mL, 24 h", "quantity": "micronucleated binucleated cells", "result": "0.3%"}
{"Structure (SMILES)": "Cc1cc(Nc2ccc(S(F)(F)(F)(F)F)cc2)n2nc(C(C)(F)F)nc2n1", "tested on": "Plasmodium vivax", "test": "12-lead Holter ECG", "test system": "human malaria patients", "conditions": "oral, 800 mg, QTc above 450 ms", "quantity": "patients with QTcF above threshold", "result": "33.3%"}
{"Structure (SMILES)": "C/C(O)=C(\\C#N)C(=O)Nc1ccc(C(F)(F)F)cc1", "tested on": "Jurkat", "test system": "culture medium", "conditions": "1 µM, 48 h", "quantity": "free drug concentration", "result": "260 nM"}
{"Structure (SMILES)": "CC[C@H](CO)N(CCN(N=O)[C@H](CC)CO)N=O", "tested on": "Salmonella typhimurium", "test": "mutagenicity, Ames plate incorporation", "test system": "TA1537", "conditions": "5000 µg/plate, without S9, methanol", "quantity": "revertant colonies per plate", "result": "15.3 ± 4"}
{"Structure (SMILES)": "O=C(O)CCCC(=O)O", "tested on": "HCT-8", "test": "Hoechst nuclei count", "conditions": "1 mM, 24 h", "how to read": "baseline: PBS", "quantity": "host cell number", "result": "0.982 ± 0.043"}
{"Structure (SMILES)": "Cc1ccc(CNC(=O)Cn2cc(CSc3nc4ccccc4[nH]3)nn2)cc1", "tested on": "HEK293", "test": "MTT", "conditions": "125 ppm", "quantity": "viability", "result": "11%"}
{"note": "Repeated from above:"}
{"Structure (SMILES)": "O=C(O)CCCC(=O)O", "tested on": "HCT-8", "test": "Hoechst nuclei count", "conditions": "1 mM, 24 h", "how to read": "baseline: PBS", "quantity": "host cell number", "result": "0.982 ± 0.043"}
